Published values from different studies.
Numbered parts are unrelated; each lists some results of a single study.

Sample 1
Target: RNA binding protein fox-1 homolog 2, RRM domain, GST-SBP tag (RBFOX2, Homo sapiens, UniProt O43251-10, residues 100-194)
Method: RNA Bind-n-Seq
Form: RNA
Matrix: in vitro
Tested at: 365 nM
Notes: natural RNA segment, single round, ends assumed
Relative to: no-protein control
Direction: higher = stronger binding
Endpoint: RBNS enrichment (R)
Target sequence (chain): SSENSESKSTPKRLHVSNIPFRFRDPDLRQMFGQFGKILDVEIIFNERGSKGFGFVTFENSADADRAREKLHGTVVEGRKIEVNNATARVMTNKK
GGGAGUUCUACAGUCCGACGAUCAACCUUGACUUCUGAUUCUUGGGGGGGGAAAAGGUCCCUGGAUGCAAGUACACACUUCCACGGAAUCAUACAUUGGUUCAUCUUCUGAGAGCGCACAAUAGCUACUGAACUGGAAUUCUCGGGUGCCAA: 0.513
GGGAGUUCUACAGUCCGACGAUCCUUUGCAUCACUAUUAAAGAGCAGAAAGUUCUAGAAAUGAUCCCAGCCUCAUCCCCUAUACAGUUAGGAGCUCCCCACAUCUCUACCAAAACCCAGCACAUAAGUAUCUGUGGAAUUCUCGGGUGCCAA: 0.692
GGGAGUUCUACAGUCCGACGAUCGGGAAAUAAUGUCCAUGCCAUUGUGUGUGGAAGAUUUACAGCUAAGCUGUAGUUGCAGAGUACAUGUACAGUAAUGAAGUUCACUGUGUUUAUAAACUGAAAAGGUACCGUGGAAUUCUCGGGUGCCAA: 0.255
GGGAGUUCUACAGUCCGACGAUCAUGGUCACACACCAGCACUUUAUACACUUCUGGCUCACAGGAAAGUGUCUGCAGUAGGGGACCCAGAGUCCCAGGCCCCUGGAGUUGUUUUCGGCAGGGGCCUUGUCUCUUGGAAUUCUCGGGUGCCAA: 0.304
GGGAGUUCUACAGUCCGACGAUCCAUCAGAUACCUGGGCCUCCUCCAUCAGAUGUCUGGGCCUCCUCCAUCAGAUGUCUGGGCCUCCUCCAUCAGAUGUCUGGGCCUCCUCCAUCAGAUGCUUGGGCCUCCUCUGGAAUUCUCGGGUGCCAA: 0.327
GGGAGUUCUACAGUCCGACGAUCCUCAUCAGUGGCUAAAGUUGAAAAGGGGUUGGUUUCCUGUAUAUAUAUGUAUGUAUAUACACACGUACAUACAUUCAUAUAUAUACAUAUAUACAUAAUGUGCUUAACCAUGGAAUUCUCGGGUGCCAA: 0.272
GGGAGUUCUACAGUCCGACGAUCCCAAGCUGCGUUAUAUUCUGUACUGUGUACAAUAAAGAAGUUUGCUUUUCGUUUACCAAGCACCCGACCUGCCUCUUUCUUGCCCUCAUUGGUCUAAUUUUAAAGCAGGCUGGAAUUCUCGGGUGCCAA: 0.432
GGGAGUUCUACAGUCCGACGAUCUCAUUGCUUCCUCCCACUUUGUGCUCUGUAAAAGAGCUACAGCUGGCAAGAUGUUUUUUCGGCCCUUCAUCACUGAUUGCAUUUUCCAUACAGAAGAGACAUCAGGGGUGUGGAAUUCUCGGGUGCCAA: 0.349
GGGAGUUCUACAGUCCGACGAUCAGGGGACUGUCAAUCACAGGGUUUCAUAUGUUGUCAUUGUCACUCUUUCACAUUUUUGUACAUCAGUGAAUUUUUUAUAUUAAAAGGUUGAGCCAAAGCCCCCAGUGUUUUGGAAUUCUCGGGUGCCAA: 0.525
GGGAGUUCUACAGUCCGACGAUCACCACUUUCCCACACUGUGAACUAAUGACAAGUGACUUAUUUGCUCAUAAGUAAAUGUCUUCAUGUUGAUGUGUCCGUGAAAGUUGUGAUCUGUUGUAAUAUCAGUUACAUGGAAUUCUCGGGUGCCAA: 0.325
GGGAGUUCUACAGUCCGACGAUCAGUGGCUAAGGUUGUUGUUGAUCUUUUUCUCCUUUGUGUGAUCAUCACAGAUGCCAUUUCUGUUUUAUUGAUGAUUAUAUGAGACUUUUAAUACAUAAAUGAACGGGUACUGGAAUUCUCGGGUGCCAA: 0.703
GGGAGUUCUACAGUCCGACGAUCUUUCCUAUCUAGAGAUGGAAGAGGGGCCAGUCAUCAGGCUAGUCACAAAGCUCAAUAAAUAUCCAUUACUCUGCUCAGAGUGUUGAGAGAGAAGCCCUAAUUAACAACGUUGGAAUUCUCGGGUGCCAA: 0.423

Sample 2
Target: Histone acetyltransferase KAT6A, both winged helices, GST fusion (KAT6A, Homo sapiens, UniProt Q92794, residues 1-181)
Method: protein binding microarray
Form: double-stranded DNA, one strand shown
Matrix: in vitro
Tested at: not given
Notes: 8-mer, flanks averaged, mean of 2 arrays, mostly near background
Relative to: not given
Direction: higher = stronger binding
Endpoint: E-score
Target sequence (chain): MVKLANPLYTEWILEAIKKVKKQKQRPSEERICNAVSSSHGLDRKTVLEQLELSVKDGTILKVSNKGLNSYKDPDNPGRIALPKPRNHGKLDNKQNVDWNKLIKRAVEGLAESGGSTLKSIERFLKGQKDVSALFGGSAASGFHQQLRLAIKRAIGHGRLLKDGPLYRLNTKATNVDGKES
CTTAAACA: 0.0702
GGGTGCAA: -0.159
CCCGCTAG: 0.262
CTGCCTGC: -0.126
ACTCGTAG: -0.045
ACCCAGCA: -0.158
CACTAAGA: -0.105
CTGTTTCC: 0.0402
CGTGTTGC: 0.13
AGCCAATC: -0.148
TAGACTGA: 0.0324
AAGTTCGG: -0.162
ACCACTAA: -0.152
GGACACCA: -0.0777
AGCTACAT: -0.244
ATGCGAAC: -0.00174

Sample 3
Target: Sal-like protein 4, full length isoform B (SALL4, Homo sapiens, UniProt Q9UJQ4-2, residues 1-616)
Method: universal PBM
Form: double-stranded DNA, one strand shown
Matrix: in vitro
Tested at: not given
Notes: 8-mer, flanks averaged, mean of replicates
Direction: higher = stronger binding
Endpoint: E-score
Target sequence (chain): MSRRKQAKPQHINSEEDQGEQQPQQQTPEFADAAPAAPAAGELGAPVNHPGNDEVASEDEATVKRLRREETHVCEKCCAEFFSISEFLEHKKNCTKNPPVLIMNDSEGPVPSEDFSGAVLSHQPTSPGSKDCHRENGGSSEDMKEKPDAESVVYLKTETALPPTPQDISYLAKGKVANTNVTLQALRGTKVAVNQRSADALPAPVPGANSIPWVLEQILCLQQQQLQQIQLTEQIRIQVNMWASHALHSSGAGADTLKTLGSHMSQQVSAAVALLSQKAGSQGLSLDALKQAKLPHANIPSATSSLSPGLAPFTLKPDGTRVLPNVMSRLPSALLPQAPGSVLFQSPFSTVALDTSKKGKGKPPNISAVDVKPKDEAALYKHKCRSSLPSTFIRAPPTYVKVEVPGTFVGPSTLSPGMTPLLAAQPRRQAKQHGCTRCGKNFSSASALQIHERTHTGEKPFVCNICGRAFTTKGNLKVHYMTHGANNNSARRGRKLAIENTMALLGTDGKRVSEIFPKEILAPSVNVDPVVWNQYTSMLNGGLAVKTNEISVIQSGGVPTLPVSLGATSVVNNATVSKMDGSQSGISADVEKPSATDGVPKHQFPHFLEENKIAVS
AGTCTGGA: 0.00525
ATGGCCGC: -0.295
AAAGAACA: 0.0962
AAGAATGA: 0.236
ACCCGTCG: -0.253
AAGTTTTA: 0.228
ATTTAGTC: 0.13
AGTCCCGG: -0.383
GCACCGAC: -0.241
ACATACCC: 0.14
ACTTTGCT: 0.084
CGTATGCA: 0.112
ACCGCGTA: -0.137
GATGCGGC: -0.288
ATAGCGTA: 0.181
CAGTCCGC: -0.176
AAATATCC: 0.275
ATCTAGTC: -0.0368
CAGGAGCC: -0.354

Sample 4
Target: Prothrombin, mature alpha-thrombin (F2, Homo sapiens, UniProt P00734)
Method: aptamer microarray, sandwich
Form: DNA with 2'F-ANA
Matrix: in vitro
Tested at: 200 nM
Notes: whole 15-mer aptamer, many near background
With: Cy3 exosite-II aptamer, 400 nM
Direction: higher = stronger binding
Endpoint: mean fluorescence intensity
Strand: GGTTGGTGTGGTTGG
2'F-ANA at 3 4 6 7 8 9 10 11 13 15: 195 a.u.
2'F-ANA at 1 3 4 5 6 7 10 11 14: 55.8 a.u.
2'F-ANA at 1 4 8 9 10 11 14: 49.2 a.u.
2'F-ANA at 4 5 6 7 8 9 11 13 14: 48.4 a.u.
2'F-ANA at 1 2 3 4 8 10 11 12: 68.8 a.u.
2'F-ANA at 2 3 10 11 13: 368 a.u.
2'F-ANA at 1 2 3 4 7 11 12 15: 294 a.u.
2'F-ANA at 2 6 7 8 10 13 14: 85.6 a.u.
2'F-ANA at 4 10 11 12 13: 94.2 a.u.
2'F-ANA at 1 2 4 7 8 9 10 11 12 13 14: 52.9 a.u.
2'F-ANA at 1 2 3 4 5 9 10 12: 61.6 a.u.
2'F-ANA at 4 5 6 7 8 9 10 11 13 14: 62.8 a.u.
2'F-ANA at 1 5 8 9 12 15: 119 a.u.
2'F-ANA at 4 5 7 8 10 11 14: 45.7 a.u.
2'F-ANA at 1 4 12 13: 256 a.u.
2'F-ANA at 2 3 4 5 8 9 11 12 13 14: 82.6 a.u.
2'F-ANA at 1 2 5 6 8 12 14: 56.9 a.u.
2'F-ANA at 3 10 11 13 14 15: 369 a.u.

Sample 5
Target: Ras GTPase-activating protein-binding protein 1, full length (G3BP1, Homo sapiens, UniProt Q13283)
Chain of UniProt Q13283 (whole entry, looked up): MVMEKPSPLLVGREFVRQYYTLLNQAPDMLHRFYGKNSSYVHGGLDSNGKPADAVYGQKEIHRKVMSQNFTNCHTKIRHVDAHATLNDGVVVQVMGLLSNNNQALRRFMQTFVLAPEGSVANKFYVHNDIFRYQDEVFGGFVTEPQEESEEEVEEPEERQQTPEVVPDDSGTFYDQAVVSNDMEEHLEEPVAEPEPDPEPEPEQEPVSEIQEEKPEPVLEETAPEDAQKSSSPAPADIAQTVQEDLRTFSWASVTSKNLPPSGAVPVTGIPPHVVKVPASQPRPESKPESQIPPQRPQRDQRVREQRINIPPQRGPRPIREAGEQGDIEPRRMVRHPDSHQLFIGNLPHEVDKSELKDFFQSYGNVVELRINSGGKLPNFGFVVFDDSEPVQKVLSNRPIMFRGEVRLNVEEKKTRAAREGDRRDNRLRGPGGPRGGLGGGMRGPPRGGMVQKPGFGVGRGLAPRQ
Method: RNA Bind-n-Seq
Form: RNA
Matrix: in vitro
Tested at: 200 nM
Notes: whole 134-nt RNA, ends assumed
With: 150 mM KCl
Relative to: input library
Direction: higher = stronger binding
Endpoint: log2 enrichment
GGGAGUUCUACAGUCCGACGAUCGUCCUGUGCUACACAUCGUAUGUACCGAAUCGGGGAAAAAGGGGAAAAAGGGGUGGGGAAAGUAUUAUGUUACGCCGUUCGGAUCUGCACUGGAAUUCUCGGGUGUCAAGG: 0.206
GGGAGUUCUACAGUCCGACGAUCUCCUGUGCUACACAUCGUAUGUACCGAAUCGGGGUUUUUUGGUUUUUUGGUUUUUUGGGGAAAGUAUUAUGUUACGCCGUUCGGAUCUGCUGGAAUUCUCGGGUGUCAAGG: -0.534
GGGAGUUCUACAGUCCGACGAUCAAGUCCUGUGCUACACAUCGUAUGUACCGAAUCGGGUGGGAAAGGGAAAAAAAGGGAAAGUAUUAUGUUACGCCGUUCGGAUCUGCACUUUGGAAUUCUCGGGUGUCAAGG: -0.134
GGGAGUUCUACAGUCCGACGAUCUCAAGUCCUGUGCUACACAUCGUAUGUACCGAAUCGGGCCCGGGCCCGGCCCGGAAAGUAUUAUGUUACGCCGUUCGGAUCUGCACUUCCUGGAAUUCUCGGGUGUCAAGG: -0.824
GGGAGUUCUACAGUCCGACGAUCGUCCUGUGCUACACAUCGUAUGUACCGAAUCGGGUUUUUUUGGGAAAAAAAGGGAGGGAAAGUAUUAUGUUACGCCGUUCGGAUCUGCACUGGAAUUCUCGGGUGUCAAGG: -0.117
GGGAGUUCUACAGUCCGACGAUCUAACUUUAGAGGAGGAUCUGAUGGAUAUGGCAGUGGACGUGGAUUUGGGGAUGGCUAUAAUGGGUAUGGACGAGGACCUGGAGGUGGCAAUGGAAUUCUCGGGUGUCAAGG: 0.214
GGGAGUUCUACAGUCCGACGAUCGCAGGAAGUAAAAACAAAUGGAAAAGCUUCGGAUAGUGGCAGGGGUGGGGGUUGCUAAGGAAAGGGUGGGAUGGGAGUGGGUAAAGAGUUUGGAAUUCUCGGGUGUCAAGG: 0.977
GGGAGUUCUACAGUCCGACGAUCUCAAGUCCUGUGCUACACAUCGUAUGUACCGAAUCGGAAGGGGAAGGGGAAGGGGAAAGUAUUAUGUUACGCCGUUCGGAUCUGCACUUCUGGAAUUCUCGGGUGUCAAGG: 0.807
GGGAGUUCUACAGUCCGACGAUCCCUCAAGUCCUGUGCUACACAUCGUAUGUACCGAAUCGGUUUGGUUUGGAGGAAAGUAUUAUGUUACGCCGUUCGGAUCUGCACUUCCAGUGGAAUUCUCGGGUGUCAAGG: -0.0829
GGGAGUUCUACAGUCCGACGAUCCAAGUCCUGUGCUACACAUCGUAUGUACCGAAUCGGGCCCGGCCCGGGGCCCGGGGAAAGUAUUAUGUUACGCCGUUCGGAUCUGCACUUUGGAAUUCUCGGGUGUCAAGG: -0.763
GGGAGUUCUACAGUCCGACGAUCAAGUCCUGUGCUACACAUCGUAUGUACCGAAUCGGGAAAAAGGGUGGGAAAAAGGGAAAGUAUUAUGUUACGCCGUUCGGAUCUGCACUUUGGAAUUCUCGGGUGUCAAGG: 0.146
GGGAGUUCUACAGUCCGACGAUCCUCAAGUCCUGUGCUACACAUCGUAUGUACCGAAUCGGUGGAAAAAGGUUUGGAAAGUAUUAUGUUACGCCGUUCGGAUCUGCACUUCCAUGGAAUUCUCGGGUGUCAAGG: -0.71
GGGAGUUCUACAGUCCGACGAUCUCAAGUCCUGUGCUACACAUCGUAUGUACCGAAUCGGUUUUUGGAAAAAGGAGGAAAGUAUUAUGUUACGCCGUUCGGAUCUGCACUUCCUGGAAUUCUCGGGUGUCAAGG: -0.683
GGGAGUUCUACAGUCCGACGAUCUCCUGUGCUACACAUCGUAUGUACCGAAUCAAACCCCCAAAUUUUUAAAUUUUUUUAAAAAAGUAUUAUGUUACGCCGUUCGGAUCUGCAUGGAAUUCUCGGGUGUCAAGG: 0.245
